{"data": "Measured values from different studies", "cell line": "HUVEC", "note": "Lines come from different studies, so protocols differ."}
{"Structure (SMILES)": "CC12CCC3c4ccc(OCCCOc5no[n+]([O-])c5S(=O)(=O)c5ccccc5)cc4CCC3C1CCC2O (centres unmarked)", "assay": "cell growth or viability, MTT", "setting": "48 h", "IC50 [µM]": 0.418}
{"Structure (SMILES)": "COc1ccc2cc3[n+](cc2c1OCc1cn(Cc2ccc(Cl)cc2)nn1)CCc1cc2c(cc1-3)OCO2", "assay": "cell growth or viability, MTT", "IC50 [µM]": 31.4}
{"Structure (SMILES)": "COc1cc2c(=O)c(-c3ccc4c(c3)OCO4)coc2c2c1OC(C)(C)C=C2", "assay": "cell growth or viability, MTT", "setting": "72 h", "IC50 [µM]": "> 50"}
{"Structure (SMILES)": "CC12CCC3c4ccc(OCCCOc5no[n+]([O-])c5S(=O)(=O)c5ccccc5)c(Br)c4CCC3C1CCC2O (centres unmarked)", "assay": "cell growth or viability, MTT", "setting": "48 h", "IC50 [µM]": 0.056}
{"Structure (SMILES)": "COc1ccc(CN2C(=O)C(=O)c3cc(NC(C)=O)ccc32)cc1", "assay": "cell growth or viability, MTT", "setting": "48 h", "IC50 [µM]": 8.22}
{"Structure (SMILES)": "COc1ccc(CC[C@H]2OC(=O)[C@@H]3CCCCN3C(=O)C(=O)C(C)(C)COC(=O)C=CCCN(C)C(=O)[C@H](Cc3ccccc3)NC(=O)[C@@H](Cc3ccccc3)N(C)C(=O)[C@@H]3CCCN3C(=O)[C@H](CC(C)C)N(C)C(=O)CCC(=O)Nc3cccc2c3)cc1OC", "assay": "thymidine uptake", "IC50 [µM]": 0.426}
{"Structure (SMILES)": "COc1cc(/C=C/C(=O)NCCCCCCNC2=C3C[C@@H](C)C[C@H](OC)[C@H](O)[C@@H](C)/C=C(\\C)[C@H](OC(N)=O)[C@@H](OC)/C=C\\C=C(/C)C(=O)NC(=CC2=O)C3=O)ccc1O", "assay": "cell growth or viability, MTT", "setting": "72 h", "IC50 [µM]": 1.58}
{"Structure (SMILES)": "COc1ccc2cc3[n+](cc2c1OCc1cn(Cc2ccccc2Br)nn1)CCc1cc2c(cc1-3)OCO2", "assay": "cell growth or viability, MTT", "IC50 [µM]": 13.9}
{"Structure (SMILES)": "COc1ccc2c(c1)OCc1c-2oc2cc3c(cc12)OCO3", "assay": "cell growth or viability, MTT", "setting": "72 h", "IC50 [µM]": "> 50"}
{"Structure (SMILES)": "COc1ccc2cc3[n+](cc2c1OCc1cn(Cc2ccccc2)nn1)CCc1cc2c(cc1-3)OCO2", "assay": "cell growth or viability, MTT", "IC50 [µM]": 71.9}
{"Structure (SMILES)": "O=C(N/C(=C/c1ccc([N+](=O)[O-])cc1)c1nc2ccccc2c(=O)o1)c1ccccc1", "assay": "cell growth or viability, MTT", "setting": "48 h", "IC50 [µM]": 79.2}
{"Structure (SMILES)": "COc1ccc2cc3[n+](cc2c1OCc1cn(Cc2ccccc2Cl)nn1)CCc1cc2c(cc1-3)OCO2", "assay": "cell growth or viability, MTT", "IC50 [µM]": 33.1}
{"Structure (SMILES)": "[NH2][Pt]1([NH2])([Cl])([O]C(=O)C(F)(F)F)[O]C(=O)C2(CC(=O)C2)C(=O)[O]1", "assay": "cell growth or viability, MTT", "IC50 [µM]": "> 200"}
{"Structure (SMILES)": "COC(=O)CNc1cc(CS(=O)(=O)c2ccc3ccccc3c2)ccc1OC", "assay": "cell growth or viability, MTS", "setting": "48 h", "IC50 [µM]": 1.22}
{"Structure (SMILES)": "COc1cc(OC)c(-c2coc3c4c(c(OC)cc3c2=O)OC(C)(C)C=C4)cc1OC", "assay": "cell growth or viability, MTT", "setting": "72 h", "IC50 [µM]": "> 50"}
{"Structure (SMILES)": "COc1ccc2cc3[n+](cc2c1OCc1cn(Cc2ccc(S(C)(=O)=O)cc2)nn1)CCc1cc2c(cc1-3)OCO2", "assay": "cell growth or viability, MTT", "IC50 [µM]": 74.6}
{"Structure (SMILES)": "COC(=O)CNc1cc(C[S+]([O-])c2ccc3ccccc3c2)ccc1OC (centres unmarked)", "assay": "cell growth or viability, MTS", "setting": "48 h", "IC50 [µM]": 11.4}
{"note": "Excerpt of the above:"}
{"Structure (SMILES)": "COc1ccc2cc3[n+](cc2c1OCc1cn(Cc2ccccc2)nn1)CCc1cc2c(cc1-3)OCO2", "assay": "cell growth or viability, MTT", "IC50 [µM]": 71.9}
{"Structure (SMILES)": "COc1ccc2cc3[n+](cc2c1OCc1cn(Cc2ccc(S(C)(=O)=O)cc2)nn1)CCc1cc2c(cc1-3)OCO2", "assay": "cell growth or viability, MTT", "IC50 [µM]": 74.6}
{"Structure (SMILES)": "CC12CCC3c4ccc(OCCCOc5no[n+]([O-])c5S(=O)(=O)c5ccccc5)c(Br)c4CCC3C1CCC2O (centres unmarked)", "assay": "cell growth or viability, MTT", "setting": "48 h", "IC50 [µM]": 0.056}
